Measurements from different studies.
Compare with care: the assays were run in different laboratories. ± marks the error that the study gave. Ends that are not written are not given here.
UniProt P41149, sequence (whole entry, looked up): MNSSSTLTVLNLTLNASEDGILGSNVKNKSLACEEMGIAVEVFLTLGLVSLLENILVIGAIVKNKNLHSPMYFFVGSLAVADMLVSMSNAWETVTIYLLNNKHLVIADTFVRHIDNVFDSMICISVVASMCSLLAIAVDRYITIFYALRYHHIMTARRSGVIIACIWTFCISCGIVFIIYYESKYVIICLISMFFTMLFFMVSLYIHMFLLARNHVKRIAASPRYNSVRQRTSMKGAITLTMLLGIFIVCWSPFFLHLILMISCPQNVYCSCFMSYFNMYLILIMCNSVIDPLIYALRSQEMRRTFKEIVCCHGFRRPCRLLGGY

With COc1cccc2c1C(=O)c1c(O)c3c(c(O)c1C2=O)C[C@@](O)(C(=O)CO)C[C@@H]3O[C@H]1C[C@H](NC(=O)[C@@H]2CCCN2C(=O)CN)[C@H](O)[C@H](C)O1 the Cmax was 5.3 µM (mouse, E0771 tumour-bearing, liver; intravenous, 92 µmol/kg PhAc-ALGP-Dox).
For `teriparatide`, the Vz/F was 203 ± 96.1 L (ELISA; healthy women; sc, 20 µg single dose, reference product, arithmetic mean).
Under “time to 50% exposure”, `insulin glulisine` is recorded as 124 ± 27 min (item: insulin; healthy volunteers, serum; subcutaneous, 0.15 U/kg).
CC1=C(I)C(C)=[N+]2C1=C(c1ccc(OCCn3cc(CNC(=O)CSC[C@H](NC(=O)c4ccc(-c5nnc(C)c6c5CCC(O)CCC6)cc4)C(=O)N[C@H](CCCNC(=N)N)C(=O)N[C@@H](CC4CCCCC4)C(=O)N[C@H](CCCNC(=N)N)C(=O)N[C@@H](CC4CCCCC4)C(=O)N[C@H](CCCNC(=N)N)C(=O)N[C@@H](CC4CCCCC4)C(=O)N[C@H](CCCNC(=N)N)C(N)=O)nn3)cc1)c1c(C)c(I)c(C)n1[B-]2(F)F (stereo partly shown) — result for “singlet oxygen quantum yield”: 0.59 (1 µM, together with: DPBF, 525 nm light; baseline: rose bengal, erythrosine B).
CSCC[C@H](NC(=O)[C@H](CO)NC(=O)[C@H](C)NC(=O)[C@H](CO)NC(C)=O)C(=O)N[C@@H](CCC(=O)O)C(=O)N[C@@H](Cc1c[nH]cn1)C(=O)N[C@@H](Cc1ccccc1)C(=O)N[C@@H](CCCNC(=N)N)C(=O)N[C@@H](Cc1c[nH]c2ccccc12)C(=O)NCC(=O)N[C@@H](CCCCN)C(=O)N1CCC[C@H]1C(=O)N[C@H](C(N)=O)C(C)C gave an EC50 of 17.2 ± 8.4 nM (Melanocortin receptor 5 (Mus musculus, UniProt P41149)).
`desB30 human insulin` gave an adsorption enthalpy of -127 ± 20 kJ/mol (reversed-phase chromatography; C4 silica; pH 7.5).
Under “adverse event incidence”, `KCNTATCATQRLANFLVHSSNNFGPILPPTNVGSNTY (Pramlintide; not fully specified (C-terminus, bridges); cysteine pairing not given here; sequence looked up)` is recorded as 12.5% (item: Nasopharyngitis; peptide, obese or overweight humans; concentration not given, ITT population).
COc1ccc(C(C)=O)cc1 — result for IC50: “inactive” (cysteine peptide Ac-RFAACAA-COOH; peptide depletion, DPRA RapidFire-MS/MS; 24 h, pH 7.5, room temperature, together with: 5.0 µM cysteine peptide).
`insulin human` has a partition coefficient of 0.07 ± 0.04 (shake-flask; octanol/buffer; pH 7.4, 37 °C).
With `insulin` the Tmax was at most 1 h (HPLC-UV; diabetic rat, plasma; subcutaneous, 4.0 IU/kg).
CC(C)[C@H](NC(=O)[C@@H]1CCCN1C(=O)[C@H](CCCNC(=N)N)NC(=O)[C@H](CS)NC(=O)[C@H](Cc1c[nH]c2ccccc12)NC(=O)[C@H](CCCNC(=N)N)NC(=O)[C@@H](Cc1ccccc1)NC(=O)[C@H](Cc1c[nH]cn1)NC(=O)[C@H](CCC(=O)O)NC(=O)[C@H](CS)NC(=O)[C@H](CS)NC(=O)[C@H](CCCCN)NC(=O)[C@@H]1CC(=O)N[C@@H](CCCNC(=N)N)C(=O)N[C@@H](C)C(=O)N[C@@H](CC(=O)O)C(=O)N[C@H](Cc2ccc(O)cc2)C(=O)N1)C(N)=O [technetium-99m labelled] gave a tissue uptake of 1.55 ± 0.42 %ID (C57 mice, intestines; iv, 0.037 MBq, 4 h).
Nc1cccc(O)c1 gave an IC50 of 8.66 µM (cysteine peptide Ac-RFAACAA-COOH; peptide depletion, DPRA RapidFire-MS/MS; 24 h, pH 7.5, room temperature, together with: 5.0 µM cysteine peptide).
`insulin aspart` gave an AUC(0-6 h) of 1290 pmol·h/L (obese type 2 diabetes patients, serum; subcutaneous, 0.2 U/kg, geometric mean).
